Results of several laboratories.
A part holds a random share of what one study measured. Positions count from the first letter of the parent shown.

Set 1 — method: RNA Bind-n-Seq; form: RNA; matrix: in vitro; tested at: 100 nM; baseline: input RNA pool; reading: higher = stronger binding
Target: RING finger protein unkempt homolog, zinc fingers 1-6, SBP tag (UNK, Homo sapiens, UniProt Q9C0B0, residues 30-357)
UniProt Q9C0B0, sequence (30-357, looked up): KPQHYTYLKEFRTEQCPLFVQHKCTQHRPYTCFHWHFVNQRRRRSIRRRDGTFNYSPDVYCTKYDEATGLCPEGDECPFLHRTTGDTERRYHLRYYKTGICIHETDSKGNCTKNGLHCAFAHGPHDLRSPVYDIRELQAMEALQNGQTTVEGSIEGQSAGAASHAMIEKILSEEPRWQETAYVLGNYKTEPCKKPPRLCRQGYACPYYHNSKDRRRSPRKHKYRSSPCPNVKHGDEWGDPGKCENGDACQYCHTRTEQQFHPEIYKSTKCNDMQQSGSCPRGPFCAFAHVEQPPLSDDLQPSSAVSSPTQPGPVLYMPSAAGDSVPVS
Setting: RNA with constant flanks, vertebrate orthologous sites, ends assumed
Constant ends, left off below: GGGAGUUCUACAGUCCGACGAUC … CAACAGAGGAUUGAGCAUCA
| Sequence | bound/input enrichment |
| --- | --- |
| AUCUCUCAGUGACAGCAUUCCGUCAGUAGCUGACUCCCACUCGAGUCAUUUUUCUGAAUUUAGUUGCUCUGAUUUGGAAAGCAUGAAAACUUCUUGUAGUCAUGGAUCCAAUGAUUAUCA | 0.331 ratio |
| CUACAAUAAUGAAAACCUACAGGAAUUUUUUUUAUUUUCCAUUUCCCCCUUAGGCAUAUUUAGGCUUUUUUUCCCAGGCAGAUCAUUCUGAGUGUGCGUGUGUGUGCACAUGUUAAAAAG | 1.05 ratio |
| UUAUGUUUUUGUGGGGGAUGGAGGAUGGGGAGUGGGGGAUGGGAGGCUGGCGUCAGCAUUAUGAAAUAUUCCAAAGCUUUUCUUUUUUGUGCUUUGUUUUCCCUUUUAAUUGGAUGCACU | 1.09 ratio |
| UUCAGGCUCAACUGACUGUUUCACAGCAUUCCUUACACAGCUAUUUAACAAGUACAAGUGGAGUUAAUUUUCAGGAUACAUCUAGGCACUCAGCAUUAUCCUGCAGUCCAGUUGGAGAUG | 0.3 ratio |
| AUGUUUCCACUGGGUUUUGUCUGUUAAGAAAAAAGAAAGAAAAACGCGAACCCGACCACAUAGAGCUUUUUAAUAGCACUAACCAAUGCCUUUUUAGAUGUAUUUUUGAUGUACAUAUCU | 1.92 ratio |
| CAGUCCCCUGGGCUGGGACAGAUUUUUUUUUUAAAGUCUUGAAAUUUAAAACUGUGCUUGUAAGAGACAGUAACCUUUUGUCUUUUUUUUUUUUUUUUUUUUUUUAAACACCCCCACCUA | 1.61 ratio |
| GCCCCCCACUCCCUGUGAGAGGGAAUGGGGGAAGCCUGAUGACCCUCAGCUGUUCCAAUCUAGUAUUUUUUUUCUUUUUUAAAAUUACUGUAUUUAUUAUGACGAUGGUGACUCCCCAGU | 1.6 ratio |

Set 2 — method: RNA Bind-n-Seq; form: RNA; matrix: in vitro; tested at: 365 nM; baseline: no-protein control; reading: higher = stronger binding
Target: RNA binding protein fox-1 homolog 2, RRM domain, GST-SBP tag (RBFOX2, Homo sapiens, UniProt O43251-10, residues 100-194)
Setting: natural RNA segment, single round, ends assumed
Constant ends, left off below: GGGAGUUCUACAGUCCGACGAUC … UGGAAUUCUCGGGUGCCAA
Target sequence (chain): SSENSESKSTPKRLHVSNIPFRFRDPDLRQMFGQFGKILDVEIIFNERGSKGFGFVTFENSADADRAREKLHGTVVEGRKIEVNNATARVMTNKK
| Sequence | RBNS enrichment (R) |
| --- | --- |
| UGCCUCAGGGAUUGUCUCUGUUCCUUCGCUGAGGCCCUCUACUUAGGGCUGAACAUAGGAUUUAUGGCUAGCAGAAUUCCAGCUCCCUUGGGUAAGGAACCAAAGCUCUC | 0.382 |
| UUUAUCACAACUGACUACUGGACCAGGGCCCAGAAAUGUGGGUCAAGUUACAUGUGAAUUUGUUUGGUGAAGAAGGGAAGCUGGGAUGGUAACAGAGCGUCACCACAUAG | 0.323 |
| CCAGUCGGACAGACGUCCCGCCACCCACCACCCCUCACAGGACGUCCGCUCAGCACACGCCUUGUUACGAGCAAGUGCCGGCUGGACCCAAGCCCUGCAUCCCCACAUGC | 0.393 |
| UGCUCUGUGGAAGGAGGCGGGAAGGGAACGUUGGCCAAGUCAGUUACUGAGAUGAAGAUCGCCCAGCUGCCAGGACCACCCCAGGACAAGUUAGAGCACUGUUUAGCUCC | 0.555 |
| CUCUGAGAACAAAAUACUACCUCACUCUUUACGUACGUGGUGACUGUACGCACAGUCUGUGCUGCAUGUCUGUCACCCAUACGCAGUCUCAAUCAUGGCCUUCACUGAGU | 3.88 |
| CCCUGCCCCCUUUCCAUUCGUGGGGAAGAAGGCAGGAGAGAGCUGGGAAAUCACAGUUCAUCACUUGAGCAUCAUAGCCUUACCCCUCGCCCCUGGUCCUACUCCUGCCU | 0.281 |
| UAAAUGAGAGGACAUGAGAUUUGGGAGGGGCCAGGGAGAGAAUGAUAUGGUUUGGCUGUGUCCCCAUCCAAAUAUCACCUUAAAUUGUAGCUCCCAUAAUUGUGGGAGGG | 2.57 |
| GCUGCCCAAGAAAGCAUUACCCGCCCUCGGGGGGUCGGGCUGUGGGGGUCCCGGCACCUGGCGUGAGUUUCAUGUAUGAAAACAUAAAAUUGAAAAAAAAAAAAAAACCU | 0.666 |
| CUAUGGAUUAGUUUGAACUGUCAAAUCCUUGCAUACUUCUGUGACACCCCUGCCCAUUUUCUGUCUUUAAUUAACCAAGGUGUUAGGUGUGACUGUCACAACUGUUAUGU | 0.764 |
| CAAGCACUGUCCUGAGGGGAUACUGUGGAGCAGCCCAGUCCACACCAGAGCCCCACGCGGCUGCCCGGCAGUACCUCCUCCAGGCAGGAGCCGGGACUGUCACUUUGGAG | 0.352 |
| ACCUCCUGGCUUCAACUGGGUGAGGGCCGUAUUCCUGCCACUCUGCUCCGCCUCAGCCUUGAGAACUCCACGUGGGCUGGGUGGGAAGGUGCUGACGAUUUUCACACUGU | 0.39 |
| CAGCCUGUCCAUCAAAACUUGUCCUGUACCCAGGACAGUACCAGCUUCCUGUCCCCCGACCCUAACAGGUGCCUUAAAAGGCCCUCUCCCACCCAAGGUGGGGGGGCCAG | 0.229 |

Set 3 — target: CCNA1, cyclin fold, Cln2 fusion (human); method: yeast growth competition, sequencing; matrix: yeast; setting: weak parent motif; baseline: not given; reading: higher = stronger binding
Parent: GMNC docking peptide (human); KNAKRNLSSEFAN
| Variant | normalised enrichment score |
| --- | --- |
| KNAKFNLSSEFAN [R5F] | -0.0372 |
| KNAKRNLSSEVAN [F11V] | 0.185 |
| KNAKRNLSFEFAN [S9F] | 0.602 |
| KNAQRNLSSEFAN [K4Q] | 0.253 |
| KNAKRNESSEFAN [L7E] | 0.454 |
| KNAKRNYSSEFAN [L7Y] | -0.0734 |
| KNAKRNMSSEFAN [L7M] | 0.00818 |
| KNAHRNLSSEFAN [K4H] | -0.411 |
| KNAKRNLPSEFAN [S8P] | 0.0256 |

Further values, each from its own experiment
| Molecule | target | test | system | conditions | scale | measurement | value |
| --- | --- | --- | --- | --- | --- | --- | --- |
| PhoQ, residues 284 288 289 292 302 303 SMYGEC | PhoP, residues 12 14 15 18 19 AQCLL (Escherichia coli, UniProt P23836) | Sort-seq, measured: YFP reporter | E. coli | PhoQ-PhoP variant library, together with: 10 µM Mg2+ | baseline: high Mg2+ state, higher = stronger signaling | fold induction | 0.82 |
